{"data": "Results gathered from unrelated publications", "note": "Numbered parts are unrelated; each lists some results of a single study."}
{"data": "Series 1", "target": "Centromere-binding protein 1, full length, His-tagged (CBF1, Saccharomyces cerevisiae, UniProt P17106, residues 1-351)", "technique": "competition protein-binding microarray", "form": "double-stranded DNA, one strand shown", "sample": "in vitro", "tested at": "2 µM", "setting": "whole 60-bp probe, lowest competitor level", "added": "Pho4 competitor, 0.05 µM", "reading": "higher = stronger binding", "shared flanks, not repeated": "… GTCTTGATTCGCTTGACGCTGCTG", "chain of UniProt P17106 (whole entry, looked up)": "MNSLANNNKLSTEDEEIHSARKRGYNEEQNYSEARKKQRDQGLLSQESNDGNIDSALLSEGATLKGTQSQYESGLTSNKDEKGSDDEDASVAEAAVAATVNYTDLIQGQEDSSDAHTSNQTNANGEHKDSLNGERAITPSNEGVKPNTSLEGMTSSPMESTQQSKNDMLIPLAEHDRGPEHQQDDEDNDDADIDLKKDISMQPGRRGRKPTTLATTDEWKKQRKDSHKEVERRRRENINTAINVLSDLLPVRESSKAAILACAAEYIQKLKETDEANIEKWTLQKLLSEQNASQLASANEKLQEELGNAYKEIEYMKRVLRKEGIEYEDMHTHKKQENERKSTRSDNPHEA"}
{"Strand": "GTCTTGTCTCATTGTCACGAGACTTTCCCCACTTCA", "fluorescence intensity [a.u.]": 865}
{"Strand": "GAAATGGTAGTTACACGCGTGAAATCAGGGTCTTAA", "fluorescence intensity [a.u.]": 103}
{"Strand": "CTTCTGTAAATTTGGAGAGTGGGTGGACGCGCCCCG", "fluorescence intensity [a.u.]": 98.8}
{"Strand": "TGCGCAACAACTTGCTTCGTGGGTGTATGTCTAGAA", "fluorescence intensity [a.u.]": 70.1}
{"Strand": "CTTCTGTAAATTTGGAACGTGGGTGGACGCGCCCCG", "fluorescence intensity [a.u.]": 66.7}
{"Strand": "TTCAAACTAAGTTGACCCGTGAATTGGAAAAGAAAT", "fluorescence intensity [a.u.]": 83.7}
{"Strand": "GACAGATAGGACAAGCATGTGGTCTTGGCGCCTCTG", "fluorescence intensity [a.u.]": 84.8}
{"Strand": "TGCATGGATATATTTGGCCCTGTATCAAGTTCAAAC", "fluorescence intensity [a.u.]": 116}
{"Strand": "AGTCTCTTTTAGTTCACCGTGACGGTACGCACTGAT", "fluorescence intensity [a.u.]": 99.4}
{"Strand": "TTATTCCCCAACAATCACGTTCCTTCTGCCAACATC", "fluorescence intensity [a.u.]": 244}
{"Strand": "GTCTTGTCTCATTGTCACCCAACTTTCCCCACTTCA", "fluorescence intensity [a.u.]": 89.1}
{"Strand": "TGCGCAACAACTTGTCATGTGGGTGTATGTCTAGAA", "fluorescence intensity [a.u.]": 179}
{"Strand": "GAGTTTTTGCATTTGCACGTGAATTAGTTCTTGGCC", "fluorescence intensity [a.u.]": 1320}
{"Strand": "AAATTACTAAGTTGTCACAAAACTTACCCCGTATGA", "fluorescence intensity [a.u.]": 89.8}
{"Strand": "ATATGCTTCCTTTGTCACGTGCAAATTCTGACTCCA", "fluorescence intensity [a.u.]": 8100}
{"Strand": "AGAAACATAGTATGGAACGTGCAAAAGAGTCTGATT", "fluorescence intensity [a.u.]": 107}
{"Strand": "TGCGCAACAACTTGTCACACCACTTTATGTCTAGAA", "fluorescence intensity [a.u.]": 131}
{"data": "Series 2", "target": "Ras GTPase-activating protein-binding protein 1, RRM domain (G3BP1, Homo sapiens, UniProt Q13283)", "technique": "RNA Bind-n-Seq", "form": "RNA", "sample": "in vitro", "tested at": "1 µM", "setting": "whole 134-nt RNA, ends assumed", "added": "150 mM KCl", "relative to": "input library", "reading": "higher = stronger binding", "shared flanks, not repeated": "GGGAGUUCUACAGUCCGACGAUC … UGGAAUUCUCGGGUGUCAAGG", "chain of UniProt Q13283 (whole entry, looked up)": "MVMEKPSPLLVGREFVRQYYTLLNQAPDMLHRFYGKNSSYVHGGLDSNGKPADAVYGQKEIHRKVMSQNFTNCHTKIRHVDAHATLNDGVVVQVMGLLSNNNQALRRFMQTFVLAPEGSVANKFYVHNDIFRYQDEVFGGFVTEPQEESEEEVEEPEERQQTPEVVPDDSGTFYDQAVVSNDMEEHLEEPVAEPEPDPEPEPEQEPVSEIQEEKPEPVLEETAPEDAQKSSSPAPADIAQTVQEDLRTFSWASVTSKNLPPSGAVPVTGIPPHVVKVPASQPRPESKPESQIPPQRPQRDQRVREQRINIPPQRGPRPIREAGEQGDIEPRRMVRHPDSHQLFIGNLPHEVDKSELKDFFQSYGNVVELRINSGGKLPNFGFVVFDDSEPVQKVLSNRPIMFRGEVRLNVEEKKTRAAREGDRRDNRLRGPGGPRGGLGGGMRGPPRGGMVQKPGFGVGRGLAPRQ"}
{"Strand": "UUAUAAUUGAUGAUCAUCCUGAAGUAACAGUAAUUGAAGAUCCCCAGUCAAAUUUGAAUGAUGAUGGUUUUACUGAAGUGGUAUCCAAAA", "log2 enrichment": -0.123}
{"Strand": "CCUGUGCUACACAUCGUAUGUACCGAAUCGGGGAAAAAAAGGGGUGGGGAAAAAAAGGGGAAAGUAUUAUGUUACGCCGUUCGGAUCUGC", "log2 enrichment": 0.42}
{"Strand": "UAACUUUAGAGGAGGAUCUGAUGGAUAUGGCAGUGGACGUGGAUUUGGGGAUGGCUACAAUGGGUAUGGAGGAGGACCUGGAGGUGGCAA", "log2 enrichment": -0.413}
{"Strand": "UUGACGAGGCCGGCCCGGGAGAUGAGACCACCGGCCAGGAAGUCAUUGUCAUUCAGGACACGGGCUUUUCUGUGAAGAUCCUCGCCCCUG", "log2 enrichment": -0.671}
{"Strand": "GUCCUGUGCUACACAUCGUAUGUACCGAAUCGGGUUUUUGGGAAAAAGGGAAAAAGGGAAAGUAUUAUGUUACGCCGUUCGGAUCUGCAC", "log2 enrichment": -0.118}
{"Strand": "CCUGUGCUACACAUCGUAUGUACCGAAUCGGUUUUUUUGGUUUUUUUGGGUUUUUUUGGGGAAAGUAUUAUGUUACGCCGUUCGGAUCUG", "log2 enrichment": -0.596}
{"Strand": "CUGUGCUACACAUCGUAUGUACCGAAUCGGGGAAAAAGGGGUUUUUGGGGAAAAAAAGGGGAAAGUAUUAUGUUACGCCGUUCGGAUCUG", "log2 enrichment": 1.16}
{"Strand": "AGUCCUGUGCUACACAUCGUAUGUACCGAAUCGGGUUUUUUUGGGAAAAAGGGAGGGAAAGUAUUAUGUUACGCCGUUCGGAUCUGCACU", "log2 enrichment": 0.413}
{"Strand": "UAACUUUAGAGGAGGAUCUGAUGGAUAUGGCAGUGGAAGUGGAUUUGGGGAUGGCUAUAAUGGGUAUGGAGGAGGACCUGGAGGUGGCAA", "log2 enrichment": -0.734}
{"Strand": "CUCAAGUCCUGUGCUACACAUCGUAUGUACCGAAUCGGAGGAGGAAAAAAAGGAAAGUAUUAUGUUACGCCGUUCGGAUCUGCACUUCCA", "log2 enrichment": -0.136}
{"Strand": "UCAAGUCCUGUGCUACACAUCGUAUGUACCGAAUCGGGAGGGAGGGAAAAAGGGAAAGUAUUAUGUUACGCCGUUCGGAUCUGCACUUCC", "log2 enrichment": 0.676}
{"Strand": "UGGCCCUGGUGGCAUGCGGGGAGGAGGAGGUGGCCUCAUGGAUCGUGGUGGUCCCGGUGGAAUGUUCAGAGGUGGCCGUGGUGGAGACAG", "log2 enrichment": 0.818}
{"Strand": "AGUCCUGUGCUACACAUCGUAUGUACCGAAUCGGGUUUUUUUGGGUUUGGGUUUGGGAAAGUAUUAUGUUACGCCGUUCGGAUCUGCACU", "log2 enrichment": 0.266}
{"Strand": "AAGUCCUGUGCUACACAUCGUAUGUACCGAAUCGGGUUUGGGAAAGGGUUUUUGGGAAAGUAUUAUGUUACGCCGUUCGGAUCUGCACUU", "log2 enrichment": 0.719}
{"data": "Series 3", "target": "RNA binding protein fox-1 homolog 2, RRM domain, GST-SBP tag (RBFOX2, Homo sapiens, UniProt O43251-10, residues 100-194)", "technique": "RNA Bind-n-Seq", "form": "RNA", "sample": "in vitro", "tested at": "365 nM", "setting": "natural RNA segment, single round, ends assumed", "relative to": "no-protein control", "reading": "higher = stronger binding", "shared flanks, not repeated": "GGGAGUUCUACAGUCCGACGAUC … UGGAAUUCUCGGGUGCCAA", "Target sequence (chain)": "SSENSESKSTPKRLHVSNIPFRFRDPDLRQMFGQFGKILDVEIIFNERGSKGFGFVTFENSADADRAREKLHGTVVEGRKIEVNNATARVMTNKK"}
{"Strand": "CUGCUCACUUAGAUGUACCUUGUGCUUUGAAGAUUUCUUUGAUGCAGUCUUUGUAACAAAUAAUUUUUUUUUUUAAAUGGAGUUUCUCUCUUGUUGCCCAGGCUGGAGGG", "RBNS enrichment (R)": 0.748}
{"Strand": "UAGCCAGUGGGAUGCCACUGCUUGCCACCACCUGUCCCCAGGCUUAGGUUUAGGGGAUGCGUAUACUUACUCCACACACGAGUUAGAAGUAUGAGUUGGCUGGUCAACUU", "RBNS enrichment (R)": 0.281}
{"Strand": "UCAUCUGCUUUGUGUACAUAUGGUAUUAAAACUGAAAACAAAUAUUCUUGACAUUUGGGUUUCAAAAUUGUGUUAGCACUUAUUUUAGAAACAUUAAUUAAGUGUAUGGC", "RBNS enrichment (R)": 0.599}
{"Strand": "CUUAAUUGAAAUCUAAGCUUUUUACCGCUUUCCCCUCCUUGCCCUCUCUCCUCCCUUCUGCCCUCCUUGCAUUGUGAUGAUCUAGUGGGCAUGUCUGUCACCUGGACAAU", "RBNS enrichment (R)": 0.785}
{"Strand": "CCUUCAGGCCUGAUGCCUCAGGCCUGAUUCCCUCCUUUUAAAGCAAUACCUUCAGGUCUGCCAUGCCAUCAGCCAGCCUGGUUCCUUCUGAGGGCAACCUGGGUCUGGUG", "RBNS enrichment (R)": 0.256}
{"Strand": "AGACACAGGAAGAAUGGGCUGCAGAAGAUUUAGAUGUUUUCCAUUUGGGCACAUUUUACUUAGCUGGAGAACUAGGUUUAAAACAGCCUGGGUAGGAAAAUUAGAAGCAA", "RBNS enrichment (R)": 1.13}
{"Strand": "CAUAUAAAGUAUAUAUAUAUGUAUGAUACAUGAAAUAUAUUUAGAAAUGUUCAUAAUUUUAAUGGAUAUUCUUUGGUGUGAAUAAUUGAAUACAACAUUUUUAAAAUAUC", "RBNS enrichment (R)": 1.11}
{"Strand": "UGGUAGGCCUCAUGUCAGAAUCAGGACCCUGCACUUCAGGACCCUUGCUUCUGCCCACCAAUCAGAGUCUGACUGGCAGUGUUAGUCUCCGACAGAGCUUGUACUAGGGC", "RBNS enrichment (R)": 0.432}
{"Strand": "GCCACACUCCCUUAACUGGGAAGUACCUGCCACGUAGGGCAUUUCUGCUGCCUAUUUCCAGCCAGCGGCUGCAUGGUUUGAAGUUCCUCCGUUGUGGUCAGAGGAACUCU", "RBNS enrichment (R)": 6.11}
{"Strand": "UGUGAGCCAGAUGUAACACUCCAAGCAGCUGUGAAAUGCAAUGUUCCUUUUGCAGGAGUGGCUGUACCUGCAGAAAGCCCAGGGGUCCACAGUACAGUGCAGGAGAAGCA", "RBNS enrichment (R)": 11.1}
{"Strand": "GCCCAGGUGGCCUGUGUGAGCGCCACUAGGCACCAGAAGGUGGCGCUCACGCUCUCGUCCUUAGGGAGGAGCUGACUUAGCAGCCCCUCAGCCCAACCCCCUGCUUCCUG", "RBNS enrichment (R)": 0.276}
{"Strand": "AUUAAUUGCUAGUACUUGUUUUUUAAACAACACUUUGUAGCAUGGGAACAACCCUCCCCCUUUCCAUUCAUAAGUCCAAAUGUAAAUAAACGUAUGCAGAAUGUUAGCGU", "RBNS enrichment (R)": 1.92}
{"data": "Series 4", "target": "Sal-like protein 4, full length isoform A (SALL4, Homo sapiens, UniProt Q9UJQ4, residues 1-1053)", "technique": "universal PBM", "form": "double-stranded DNA, one strand shown", "sample": "in vitro", "tested at": "600 nM", "setting": "8-mer, flanks averaged, mean of replicates", "reading": "higher = stronger binding", "chain of UniProt Q9UJQ4 (whole entry, looked up)": "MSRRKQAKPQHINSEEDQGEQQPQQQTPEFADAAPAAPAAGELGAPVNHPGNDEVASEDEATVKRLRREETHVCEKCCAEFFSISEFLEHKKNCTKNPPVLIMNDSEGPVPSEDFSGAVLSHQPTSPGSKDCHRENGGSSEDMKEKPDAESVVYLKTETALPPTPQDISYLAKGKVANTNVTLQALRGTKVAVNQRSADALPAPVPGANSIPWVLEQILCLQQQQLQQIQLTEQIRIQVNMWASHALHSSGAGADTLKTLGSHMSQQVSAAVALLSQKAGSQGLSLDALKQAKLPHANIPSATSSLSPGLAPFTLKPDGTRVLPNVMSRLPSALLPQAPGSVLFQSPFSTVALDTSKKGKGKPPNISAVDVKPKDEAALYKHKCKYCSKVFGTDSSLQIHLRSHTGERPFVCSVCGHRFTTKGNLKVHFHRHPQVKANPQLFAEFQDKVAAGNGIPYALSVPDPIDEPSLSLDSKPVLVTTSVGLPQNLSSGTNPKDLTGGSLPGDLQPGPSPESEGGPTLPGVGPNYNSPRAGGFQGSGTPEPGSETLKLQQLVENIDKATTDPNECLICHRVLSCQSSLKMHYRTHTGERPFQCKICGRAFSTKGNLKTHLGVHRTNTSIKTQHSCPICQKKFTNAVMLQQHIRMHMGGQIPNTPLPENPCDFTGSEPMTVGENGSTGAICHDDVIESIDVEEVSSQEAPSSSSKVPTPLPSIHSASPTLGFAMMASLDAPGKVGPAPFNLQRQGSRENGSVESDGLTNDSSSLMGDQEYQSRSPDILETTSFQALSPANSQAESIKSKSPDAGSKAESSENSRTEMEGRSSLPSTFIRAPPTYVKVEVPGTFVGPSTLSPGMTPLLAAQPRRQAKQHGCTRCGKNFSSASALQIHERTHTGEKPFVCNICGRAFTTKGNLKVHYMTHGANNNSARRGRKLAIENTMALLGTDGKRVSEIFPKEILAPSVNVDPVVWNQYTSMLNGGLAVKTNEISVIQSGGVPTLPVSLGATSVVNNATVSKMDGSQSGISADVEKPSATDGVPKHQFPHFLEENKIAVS"}
{"Strand": "AGATCAGA", "E-score": -0.0101}
{"Strand": "CCGTGTTA", "E-score": -0.0906}
{"Strand": "ACCGCTAT", "E-score": -0.0575}
{"Strand": "GACTCAAC", "E-score": -0.0459}
{"Strand": "AGCGGGGG", "E-score": -0.299}
{"Strand": "AGCTAACT", "E-score": 0.184}
{"Strand": "TTTTAAAA", "E-score": 0.32}
{"Strand": "GATTTCCA", "E-score": -0.0317}
{"Strand": "ACCGGCAT", "E-score": -0.105}
{"Strand": "GGAAGTGA", "E-score": -0.0189}
{"Strand": "CGGTCGAC", "E-score": -0.259}
{"Strand": "AGGTCTTG", "E-score": -0.148}
{"Strand": "CGAAGTTA", "E-score": 0.0658}
{"Strand": "AGGAGGGC", "E-score": -0.303}
{"Strand": "GGCGCCCA", "E-score": -0.278}
{"Strand": "CGATATCG", "E-score": 0.112}
{"Strand": "TGATGGCA", "E-score": 0.0311}
{"Strand": "CCCAGTCA", "E-score": -0.242}
{"Strand": "AGAAGACG", "E-score": -0.0245}
{"note": "Some of these lines once more (series 4):"}
{"Strand": "GGAAGTGA", "E-score": -0.0189}
{"Strand": "CGGTCGAC", "E-score": -0.259}
{"Strand": "AGGTCTTG", "E-score": -0.148}
{"Strand": "CGAAGTTA", "E-score": 0.0658}
{"Strand": "AGGAGGGC", "E-score": -0.303}
{"Strand": "GGCGCCCA", "E-score": -0.278}
{"Strand": "CGATATCG", "E-score": 0.112}
